# Assay results from different studies.
# Compare with care: the assays were run in different laboratories. “And” joins repeats or separate records; there may be more than shown. ± gives the spread as reported.
# Nuclear receptor subfamily 2 group C member 2 ligand-binding domain: Nuclear receptor subfamily 2 group C member 2, ligand-binding domain (Homo sapiens, UniProt P49116)
SMILES,tested on,test,system,conditions,how to read,measurement,value
CN1C(C(=O)Nc2ccccn2)=C(O)c2sc(Cl)cc2S1(=O)=O,COS-7,,,"30 µM, 24 h, 0.1% DMSO, unit not given",relative to: vehicle control,necrotic cells,0.56 ± 0.19
C=C1CN(S(=O)(=O)c2ccc(C)cc2)CCCN(Cc2ccccc2)CCCN(S(=O)(=O)c2ccc(C)cc2)C1,"Protein transport protein Sec61 subunit alpha isoform 1 (Homo sapiens, UniProt P61619)","Sec61-dependent translocation, inhibitor, measured: CD4 signal peptide-FLuc reporter",HEK293,"concentration not given, 6 h",,FLuc/RLuc ratio,0.51
Oc1ccc(/C=C/c2cc(O)cc(O)c2)cc1,"O-methyltransferase (Sorghum bicolor, UniProt A0A1B6PFV1)",isothermal titration calorimetry,,"concentration not given, apo protein",,binding stoichiometry,0.68 ± 0.013 sites
CCC(=O)NS(=O)(=O)c1ccc(-c2c(-c3ccccc3)noc2C)cc1,COS-7,,,"50 µM, 24 h, 0.1% DMSO, unit not given",relative to: vehicle control,necrotic cells,0.6 ± 0.12
Cc1cccc(C)c1OCC(C)N (centres unmarked),Nuclear receptor subfamily 2 group C member 2 ligand-binding domain,binding,,,,koff,1.44e-06 s⁻¹
Cc1ccc(N2CC(C(N)=O)CC2=O)cc1 (centres unmarked),"F-box only protein 22, with SKP1 (Homo sapiens, UniProt Q8NEZ5)","binding, affinity selection mass spectrometry",,,relative to: other proteins in batch,fold enrichment,1
C[C@H](N)C(=O)N[C@@H](CCCNC(=N)N)C(=O)N[C@H](C(=O)N[C@@H](CCCCN(C)C)C(=O)N[C@@H](CCC(N)=O)C(=O)N[C@H](C(=O)N[C@@H](C)C(=O)N[C@@H](CCCNC(=N)N)C(=O)N[C@@H](CCCCN)C(=O)N[C@@H](CO)C(=O)N[C@H](C(=O)NCC(=O)NCC(=O)N[C@@H](CCCCN)C(=O)N[C@@H](C)C(=O)N[C@@H](Cc1ccc(O)cc1)C(=O)O)[C@@H](C)O)[C@@H](C)O)[C@@H](C)O,"Transcriptional regulator ATRX (ATRX, Homo sapiens, UniProt P46100, F284Y/K251R)",isothermal titration calorimetry,,"concentration not given, pH 7.5, 25.0 °C",,binding enthalpy,-5.46 kcal/mol
COc1cc2c(c(OC)c1OC)C(=O)c1c(cc(C)c(O)c1OC)C2=O,HepaRG co-cultured with HK-2,MTT,,"133.33 µM, 48 h",relative to: untreated control,cell viability,69.5 ± 6.7%
N[C@H](Cc1ccccc1)C(=O)O,"PAL1 (Petroselinum crispum, UniProt P24481, Y110F)","binding, ITC",,,,ΔH,-29.3 kcal/mol
Nc1nc2c(ncn2[C@@H]2O[C@H](COP(=O)(O)OP(=O)(O)O)[C@@H](O)[C@H]2O)c(=O)[nH]1,"GUK1 (Homo sapiens, UniProt Q16774, S13A)","binding, ITC",,,,ΔG,-5.64 kcal/mol
Cc1cc(O)c2c(c1)C(=O)c1cccc(O)c1C2=O,HepaRG co-cultured with HK-2,MTT,,"66.67 µM, 48 h",relative to: untreated control,cell viability,67.7 ± 6.85%
[O-][S+]1CCCCS1 (centres unmarked),"SOD1 (Homo sapiens, UniProt P00441, G94A)",LC-MS,brain homogenate,"1 µM, 1 h, 37 °C",,SOD1 monomer fraction,99.7%
N#Cc1ccc(Cn2cncc2CN2CCN(c3cccc(OC(F)(F)F)c3)C(=O)C2)cc1Oc1ccccc1,Cryptococcus neoformans farnesyltransferase,"enzyme activity, inhibitor, fluorescence",,"with: 1 µM FPP, 0.5 µM dansylated peptide",,IC50,2600 ± 1400 nM
COc1cc[nH]c1/C=C1\C(=O)Nc2ccc([N+](=O)[O-])c(N3CC[C@@H](O)C3)c21,"Serine/threonine protein kinase UL97 (Human herpesvirus 5, UniProt P16788)","high molecular weight UL97, western blot",infected cells,,,UL97 autophosphorylation,no effect
O=c1nc(SCc2cc(F)cc(C(F)(F)F)c2)nc(SCc2ccc3sccc3c2)[nH]1,"TOP2A (Homo sapiens, UniProt P11388)",decatenation,,"31.25 µM, replicate 1",,decatenated DNA,0.14%
Cc1cc(-c2ccnc3[nH]cc(F)c23)cc(F)c1[C@@]1(O)[C@H](C)CN(C2CCS(=O)(=O)CC2)C[C@@H]1C,AKT1 and AKT3,"ATP probe binding, KiNativ, measured: Lys1 site",HEK293T cell lysate,1 µM,,inhibition,-3.7%
CC(=O)Nc1ccc(O)cc1,"BRD4 (Homo sapiens, UniProt O60885)","19F NMR, measured: tyrosine 118",,95 µM,relative to: free protein,chemical shift change,-0.015 ppm
O=C(O)CCCC[C@@H]1SC[C@@H]2NC(=O)N[C@@H]21,Nuclear receptor subfamily 2 group C member 2 ligand-binding domain,SPR imaging,,600 nM,,koff,5.93e-07 s⁻¹
Oc1ccccc1-c1n[nH]cc1-c1ccnc2ccccc12,"Serine/threonine-protein kinase GIN4 (GIN4, Candida albicans, UniProt Q59W62)","kinase binding, MIB/MS competition",Candida albicans lysate,10 µM,"relative to: DMSO, negative = stronger binding",log2 fold change,0.17
Nc1[nH]nc2nnc(-c3c(-c4ccccc4)nn4ccccc34)cc12,"MAPK3 (Homo sapiens, UniProt P27361)",ADP-Glo,,"3.81 nM, with: MBP substrate",,kinase activity,77.5% and 114% and 94.6%

# A few entries again:
SMILES,tested on,test,system,conditions,how to read,measurement,value
COc1cc2c(c(OC)c1OC)C(=O)c1c(cc(C)c(O)c1OC)C2=O,HepaRG co-cultured with HK-2,MTT,,"133.33 µM, 48 h",relative to: untreated control,cell viability,69.5 ± 6.7%
Oc1ccc(/C=C/c2cc(O)cc(O)c2)cc1,"O-methyltransferase (Sorghum bicolor, UniProt A0A1B6PFV1)",isothermal titration calorimetry,,"concentration not given, apo protein",,binding stoichiometry,0.68 ± 0.013 sites
